Experimental data pooled from the literature.
Every numbered part comes from another study and shows a few of its results, in no order. Values joined by “and” are separate records of one study, mostly repeats; a detail may differ. Substitutions count along the parent as printed.

Sample 1 — target: CCNB2, cyclin fold, Cln2 fusion (human); method: yeast growth competition, sequencing; matrix: yeast; notes: weak parent motif; baseline: not given; direction: higher = stronger binding; parent: viral docking peptide; KGVKRKLFAEDSS
Change | normalised enrichment score
KGVKRKLPAEDSS [F8P] | 0.16
KGVKGKLFAEDSS [R5G] | -0.32
KGNKRKLFAEDSS [V3N] | 0.13
KGVKHKLFAEDSS [R5H] | 0.398
KGVKDKLFAEDSS [R5D] | 0.127
KGVKRKSFAEDSS [L7S] | 0.368
KGVKRKLFAEDRS [S12R] | 0.614
KNVKRKLFAEDSS [G2N] | 0.312
KGVKRKLFIEDSS [A9I] | 1.2
KGVKRKLFGEDSS [A9G] | 0.467
KIVKRKLFAEDSS [G2I] | 0.84
KGVDRKLFAEDSS [K4D] | -0.116
KGVKRKLFAEKSS [D11K] | 0.523
KEVKRKLFAEDSS [G2E] | 0.714
KGVMRKLFAEDSS [K4M] | 0.0377
KGVKRKLFAQDSS [E10Q] | 0.5
KGVKRKNFAEDSS [L7N] | 0.208
KGVYRKLFAEDSS [K4Y] | 0.176
KGVQRKLFAEDSS [K4Q] | 0.406

Sample 2 — effect on: enzyme activity; action: inhibitor; method: radiometric; tested at: 0.5 µM
Target: Serine/threonine-protein kinase 33 (STK33, Homo sapiens, UniProt Q9BYT3)
Chain of UniProt Q9BYT3 (whole entry, looked up): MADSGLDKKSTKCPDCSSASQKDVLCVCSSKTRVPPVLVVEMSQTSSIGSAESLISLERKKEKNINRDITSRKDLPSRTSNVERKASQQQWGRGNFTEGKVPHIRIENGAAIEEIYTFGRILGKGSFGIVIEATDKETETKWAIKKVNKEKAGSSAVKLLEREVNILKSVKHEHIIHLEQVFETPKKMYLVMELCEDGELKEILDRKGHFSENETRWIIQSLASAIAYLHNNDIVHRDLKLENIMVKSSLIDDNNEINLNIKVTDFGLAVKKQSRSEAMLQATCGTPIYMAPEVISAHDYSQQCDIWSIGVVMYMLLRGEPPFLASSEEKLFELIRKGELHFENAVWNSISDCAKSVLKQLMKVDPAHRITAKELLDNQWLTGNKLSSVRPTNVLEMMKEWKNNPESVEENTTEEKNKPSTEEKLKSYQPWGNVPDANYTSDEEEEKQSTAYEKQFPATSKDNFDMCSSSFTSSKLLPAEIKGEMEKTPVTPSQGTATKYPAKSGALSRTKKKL
Compound | remaining activity
O=C1Nc2ccc(Br)cc2/C1=C/c1cc2c([nH]1)CCCC2 | 77.3%
CN1CCN(c2ccc3nc(-c4c(N)c5c(F)cccc5[nH]c4=O)[nH]c3c2)CC1 | 60.7%
O=C1NC(=O)c2c1c1c3ccccc3[nH]c1n1cncc21 | 52.3%
CCCCc1c(-c2ccc(OC)cc2)[nH]c2nccnc12 | 84.6%

Sample 3 — method: RNA Bind-n-Seq; form: RNA; matrix: in vitro; tested at: 365 nM; baseline: no-protein control; direction: higher = stronger binding
Target: RNA binding protein fox-1 homolog 2, RRM domain, GST-SBP tag (RBFOX2, Homo sapiens, UniProt O43251-10, residues 100-194)
Notes: natural RNA segment, single round, ends assumed
Residues (chain): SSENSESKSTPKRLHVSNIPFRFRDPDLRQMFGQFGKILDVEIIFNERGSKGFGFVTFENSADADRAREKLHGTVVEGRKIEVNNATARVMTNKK
Sequence | RBNS enrichment (R)
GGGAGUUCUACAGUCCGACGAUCUUACAAACUGUAAGACACAUUUUUUUGUGUGUUUGUUUUUGUUGUUGUUCUUUUGCAGCACUCACGCCUCUGACAGUCUUUUGGGAAAGAGUAACACCCACAUACAGAAUUGGAAUUCUCGGGUGCCAA | 0.469
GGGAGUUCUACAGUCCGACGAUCUGGGCCAUUCUGAAGAAUCACAAAGACAGAAGACCUCUGGCUAAGAGCAGGCUUCAAACGAUGUGAAAUAAGCUGAGAUGGCUACAUGAUAUUCUUCAUCUCAUCCUGUGUGGAAUUCUCGGGUGCCAA | 0.304
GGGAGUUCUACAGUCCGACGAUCUUGGGAAACGUUUUAACAUCUGGAGCCUUUGUGGGUGGAAAUAUGUCUCCAGUUACAACUCCGCAGUGGAUGUGAAGAAGCAAAAAAAAAAAAAUCUAUUCAGUCUACUCUGGAAUUCUCGGGUGCCAA | 0.477
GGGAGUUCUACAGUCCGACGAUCCAUCCUGAAGAUUAUUAAAAGGAAAAGAUGCUGAUUGGUACAUAAAUCUUUUACAUGGCCUUGGUCUAGAGGAGGCAGGCUUUUAGAAUCAUGUUUUGUUAAUCCGCUUCUGGAAUUCUCGGGUGCCAA | 1.19
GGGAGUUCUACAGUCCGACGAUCAAUUUUGGAGGGCAAGACAGGGAGGAGGCCGCUUCAUCCCAGACUCUCUUCUAGGGCUUCCCACCAUCAGCCCCUCCCACUUGAGACUGGUCUUUGGGAGGCAAUAGGCCUGGAAUUCUCGGGUGCCAA | 0.462
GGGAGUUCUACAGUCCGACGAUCACCAGUUGGAGCAGAUGCCUCCCCACCACCAAUUGCCAAAGGUCCAAUAAAAUGCCUCAACCACGGAUCUGCGUGUGUCAGUGAUGCCUAGCCCCGCCUUCCCCAGCAGAUGGAAUUCUCGGGUGCCAA | 0.465
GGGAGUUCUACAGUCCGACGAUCUUCCAGGGAUUCUGGUAAAGGUGGUUUCUUGCAUCCCACUCCCCUUUUACCUUGGCUUUGACAUAGGAAAGGUAUAUUUAAAAACUUAAUCAGCUGGGCGUGGUGGCUCAUGGAAUUCUCGGGUGCCAA | 1.91
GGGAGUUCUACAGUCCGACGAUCGACGGGAACACGCCGGAGGGUAGAGCUGGGGAGAACCCAUUCUUCCUUGGAAGGAUCCGCUGAAGGUCAGCGUAUAGGUGAUGUACAGUUCCUAAUAUCACAUCAGUCUCUGGAAUUCUCGGGUGCCAA | 0.368

Sample 4 — method: aptamer microarray, sandwich; form: DNA with 2'F-ANA; matrix: in vitro; tested at: 200 nM; with: Cy3 exosite-II aptamer, 400 nM; direction: higher = stronger binding; sequence: GGTTGGTGTGGTTGG
Target: Prothrombin, mature alpha-thrombin (F2, Homo sapiens, UniProt P00734)
Notes: whole 15-mer aptamer, many near background
Modification | mean fluorescence intensity
2'F-ANA at 2 3 5 8 9 11 12 14 15 | 64.9 a.u.
2'F-ANA at 5 7 9 10 11 12 13 | 50.7 a.u.
2'F-ANA at 1 3 7 8 10 11 12 13 15 | 109 a.u.
2'F-ANA at 1 3 7 8 13 14 15 | 107 a.u.
2'F-ANA at 3 6 7 8 13 14 | 655 a.u.
2'F-ANA at 1 5 6 9 10 11 15 | 50.7 a.u.
2'F-ANA at 2 4 5 9 10 12 13 14 | 45.2 a.u.
2'F-ANA at 1 2 3 7 9 10 11 12 13 | 292 a.u.

Other studies, line by line — effect on: necroptosis protection; method: CCK-8
SMILES | cell line | setting | viability
Cc1ccc(O)cc1Nc1ccnc2cc(-c3ccccn3)ccc12 | L929 | 1.667 µM, with: TNF-α-induced | 50.4%
N#Cc1c(Oc2ccc(F)c(NC(=O)Cc3cccc(C(F)(F)F)c3)c2)ccc2nc(NC(=O)C3CC3)sc12 | L929 | 10 µM, with: TNF-α-induced | 86.3%
CC[C@H](C)c1nc2cc(Nc3ccnc4ccc(S(=O)(=O)C(C)C)cc34)ccc2s1.Cl | HT-29 | 0.313 µM, with: TNF-α SMAC mimetic zVAD | 18.4% and 19% and 12.1% and 19.6%

A few entries again (sample 1):
Change | normalised enrichment score
KGVYRKLFAEDSS [K4Y] | 0.176
KGVKHKLFAEDSS [R5H] | 0.398
KIVKRKLFAEDSS [G2I] | 0.84
KGVKRKLFAEDRS [S12R] | 0.614
